Published values collected from several papers.
Each numbered part is a random draw from the data of one study; scales do not carry over between parts.

Series 1 — technique: RNA Bind-n-Seq; form: RNA; matrix: in vitro; tested at: 365 nM; relative to: no-protein control; direction: higher = stronger binding
Target: RNA binding protein fox-1 homolog 2, RRM domain, GST-SBP tag (RBFOX2, Homo sapiens, UniProt O43251-10, residues 100-194)
Setting: natural RNA segment, single round, ends assumed
Construct (chain): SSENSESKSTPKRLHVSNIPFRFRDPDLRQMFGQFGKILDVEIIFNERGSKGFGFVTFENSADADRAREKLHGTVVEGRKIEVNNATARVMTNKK
Sequence	RBNS enrichment (R)
GGGAGUUCUACAGUCCGACGAUCCUCCACUUUCUUUAAGAAUCAGGGGGUACAGAAUAACCUACAAACAACCUCUUCAAAGUACCCUUGGAAAUUGAAGUUCAAUCUUAAGUUUUUUGCUGUCUUUAAUUUACUGGAAUUCUCGGGUGCCAA	0.367
GGGAGUUCUACAGUCCGACGAUCUUACUGUAAACACAGUGUUCGACUGAAGCUAGAGUGCAGAGUCGCAGCACUGCUGACUGCCUGCCUCUCUGACAUGUGGCUCUUGUUUCGUGGGGACUUUUCCUCUGGAAUGGAAUUCUCGGGUGCCAA	0.355
GGGAGUUCUACAGUCCGACGAUCUAUGUAUGAAAAAUGAUCCUAGCCUUACACUGAGUACAAUAAUACUUAUAAGCAUGUGAAGAUGUGAUCUUUGUGAUGUUACUUGUACAAACAUAUAUACAUAUCUAUACUGGAAUUCUCGGGUGCCAA	10.8
GGGAGUUCUACAGUCCGACGAUCAUUUUGUACAUAUGUUUGCUCUUUUUUUGUACAGACUAGUUGUUGAGAAAACAGGGGCGUUUCCUAAUUUGGUCUUUAUCCUGCGACAACACUUUCAGCAGACUAGCCUCUGGAAUUCUCGGGUGCCAA	2.48

Series 2 — technique: RNA Bind-n-Seq; form: RNA; matrix: in vitro; tested at: 200 nM; setting: whole 134-nt RNA, ends assumed; with: 150 mM KCl; relative to: input library; direction: higher = stronger binding
Target: Ras GTPase-activating protein-binding protein 1, full length (G3BP1, Homo sapiens, UniProt Q13283)
UniProt Q13283, sequence (whole entry, looked up): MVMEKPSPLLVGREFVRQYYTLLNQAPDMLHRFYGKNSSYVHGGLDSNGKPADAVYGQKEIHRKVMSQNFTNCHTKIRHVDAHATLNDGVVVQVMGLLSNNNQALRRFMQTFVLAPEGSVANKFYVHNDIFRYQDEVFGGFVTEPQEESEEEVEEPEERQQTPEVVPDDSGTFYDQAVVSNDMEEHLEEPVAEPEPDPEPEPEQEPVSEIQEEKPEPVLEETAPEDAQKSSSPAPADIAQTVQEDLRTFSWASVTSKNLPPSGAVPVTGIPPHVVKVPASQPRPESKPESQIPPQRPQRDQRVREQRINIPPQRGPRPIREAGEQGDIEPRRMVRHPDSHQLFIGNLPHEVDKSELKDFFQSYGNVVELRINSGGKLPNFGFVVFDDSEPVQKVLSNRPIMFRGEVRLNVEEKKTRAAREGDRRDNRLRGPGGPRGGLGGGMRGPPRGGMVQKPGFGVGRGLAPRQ
Constant ends, left off below: GGGAGUUCUACAGUCCGACGAUC … UGGAAUUCUCGGGUGUCAAGG
Sequence	log2 enrichment
UUCCUCAAGUCCUGUGCUACACAUCGUAUGUACCGAAUCGGCGGGCGGCGGAAAGUAUUAUGUUACGCCGUUCGGAUCUGCACUUCCAGC	-0.136
GCAGGAAGUAAAAACAAAUGGAAAUGCUGCGGAUAGUGGCAGGGGUGGGGGUUGCUAAGGAAAGGGUGGGAUGGGAGUGGGUAAAGAGUU	1.12
UGGGAUGUGGAUUUUGUUUAUUUUUUUAGCUCAUUUCCAGGGGUGGGAAUUUUUUUUUAAUAUGUGUCAUGAAUAAAGUUGUUUUUGAAA	-0.526
UGGGAGGUGGAUUUUGUUUAUUUUUUUAGCUCAUUUCCAGGGGUGGGAAUUUUUUUUUAAUAUGUGUCAUGAAUAAAGUUGUUUUUUAAA	0.194
CAAGUCCUGUGCUACACAUCGUAUGUACCGAAUCGGGUUUUUUUGGGUGGGAGGGAAAGUAUUAUGUUACGCCGUUCGGAUCUGCACUUC	0.562
AAGUCCUGUGCUACACAUCGUAUGUACCGAAUCGGAAAAAGGAAAGGAAAAAAAGGAAAGUAUUAUGUUACGCCGUUCGGAUCUGCACUU	-1.17

Series 3 — technique: universal PBM; form: double-stranded DNA, one strand shown; matrix: in vitro; tested at: 600 nM; direction: higher = stronger binding
Target: Sal-like protein 4, full length isoform A (SALL4, Homo sapiens, UniProt Q9UJQ4, residues 1-1053)
UniProt Q9UJQ4, sequence (whole entry, looked up): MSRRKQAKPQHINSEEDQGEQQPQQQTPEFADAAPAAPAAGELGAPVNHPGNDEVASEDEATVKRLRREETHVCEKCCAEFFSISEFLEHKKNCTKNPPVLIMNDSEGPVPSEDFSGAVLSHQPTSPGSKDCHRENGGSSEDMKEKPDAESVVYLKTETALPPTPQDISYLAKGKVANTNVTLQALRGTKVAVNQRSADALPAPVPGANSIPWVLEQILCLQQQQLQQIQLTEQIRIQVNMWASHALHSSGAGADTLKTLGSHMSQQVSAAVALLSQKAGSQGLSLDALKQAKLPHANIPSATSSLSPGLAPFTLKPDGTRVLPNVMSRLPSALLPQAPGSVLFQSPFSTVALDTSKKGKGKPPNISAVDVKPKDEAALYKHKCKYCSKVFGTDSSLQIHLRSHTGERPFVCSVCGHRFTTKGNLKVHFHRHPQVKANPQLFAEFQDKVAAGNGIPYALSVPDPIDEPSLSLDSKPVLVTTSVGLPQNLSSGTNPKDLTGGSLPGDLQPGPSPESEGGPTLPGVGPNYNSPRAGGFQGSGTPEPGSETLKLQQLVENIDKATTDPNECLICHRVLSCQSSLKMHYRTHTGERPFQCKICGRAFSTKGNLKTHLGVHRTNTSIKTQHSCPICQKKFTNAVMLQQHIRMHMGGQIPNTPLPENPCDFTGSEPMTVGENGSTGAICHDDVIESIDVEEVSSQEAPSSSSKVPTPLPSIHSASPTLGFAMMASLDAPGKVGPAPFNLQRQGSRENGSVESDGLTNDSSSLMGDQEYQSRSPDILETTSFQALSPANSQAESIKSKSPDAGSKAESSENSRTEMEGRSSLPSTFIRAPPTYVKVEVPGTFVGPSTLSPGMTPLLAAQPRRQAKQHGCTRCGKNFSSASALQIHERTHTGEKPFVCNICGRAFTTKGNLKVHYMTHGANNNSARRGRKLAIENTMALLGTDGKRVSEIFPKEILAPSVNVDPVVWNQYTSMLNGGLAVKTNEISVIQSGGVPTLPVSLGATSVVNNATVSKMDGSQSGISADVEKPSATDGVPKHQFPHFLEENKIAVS
Setting: 8-mer, flanks averaged, mean of replicates
Sequence	E-score
ATGGTGGC	-0.121
ATCTTTCG	0.0167
TTCGACAA	0.199
CATGTGGG	-0.138
AATGCTGC	0.0786
ACCTCTCG	-0.165

Other studies, line by line
Molecule	target	assay	system	setting	how to read	quantity	value
PhoQ, residues 284 288 289 292 302 303 GNNTDL	PhoP, residues 12 14 15 18 19 TPWLV (Escherichia coli, UniProt P23836)	Sort-seq, measured: YFP reporter	E. coli	PhoQ-PhoP variant library, with: 10 µM Mg2+	relative to: high Mg2+ state, higher = stronger signaling	fold induction	6.38

Some of these lines once more (series 2):
Sequence	log2 enrichment
UUCCUCAAGUCCUGUGCUACACAUCGUAUGUACCGAAUCGGCGGGCGGCGGAAAGUAUUAUGUUACGCCGUUCGGAUCUGCACUUCCAGC	-0.136
